# Published values of several laboratories.
# Compare with care: the assays were run in different laboratories. ± marks the error that the study gave.
# SPT15/TOA1/TOA2/SUA7 1-240; 1-286; 1-122; 1-345: SPT15/TOA1/TOA2/SUA7 1-240; 1-286; 1-122; 1-345 (Saccharomyces cerevisiae)
# Fibroin-modulator-binding protein-1: Fibroin-modulator-binding protein-1 99-193 (Bombyx mori, UniProt Q5FBS0)
# Sequence of UniProt P42568 (whole entry, looked up): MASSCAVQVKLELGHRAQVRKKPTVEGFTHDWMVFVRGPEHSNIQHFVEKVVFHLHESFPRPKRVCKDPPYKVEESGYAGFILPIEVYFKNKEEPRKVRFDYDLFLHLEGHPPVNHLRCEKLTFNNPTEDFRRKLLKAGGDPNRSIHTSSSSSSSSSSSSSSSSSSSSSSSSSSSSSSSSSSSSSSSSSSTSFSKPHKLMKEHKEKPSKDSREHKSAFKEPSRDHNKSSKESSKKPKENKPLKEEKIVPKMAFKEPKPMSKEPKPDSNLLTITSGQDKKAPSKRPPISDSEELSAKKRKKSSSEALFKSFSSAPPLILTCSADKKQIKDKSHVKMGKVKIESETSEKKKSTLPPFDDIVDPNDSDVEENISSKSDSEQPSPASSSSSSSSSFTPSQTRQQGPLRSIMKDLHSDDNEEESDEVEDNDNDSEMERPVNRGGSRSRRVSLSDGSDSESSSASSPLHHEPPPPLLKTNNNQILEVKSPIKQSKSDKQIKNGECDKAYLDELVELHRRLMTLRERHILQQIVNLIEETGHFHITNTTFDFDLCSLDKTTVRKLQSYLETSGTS
Substance,tested on,test,test system,conditions,how to read,endpoint,result
CCAACCGGACTTTGGGGCTAGCGTTTAGAAAAGTCTCAAGTCAATCGGTCC (dsDNA; 5'-amino-C6 primer),SPT15/TOA1/TOA2/SUA7 1-240; 1-286; 1-122; 1-345,array,"double-stranded DNA, one strand shown",TBP:TFIIA:TFIIB ternary complex,,Kd,4.44 ± 1.99 nM
KDECVIATEV,human SCRIB PDZ3-4 tandem (MBP fusion),automated holdup,"peptide, crude extract","concentration not given, uncorrected, unit not given","reference: biotin control resin, higher = stronger binding",binding intensity,0.288
GGGAGAACUUCGACCAGAAGUCCUAAGAUGCGUUAACAUUACGUAAGAAUCUACCUACCUAUGUGCGCAUACAUGGAUCCUC (ssRNA; 2'-fluoro pyrimidines),integrin alphaV/beta3 31-992/27-718 (Homo sapiens),SPR,RNA,added: MnCl2 1 mM,higher = more binding,relative binding,3.5 RU
GGTAGGTAGGTA (dsDNA),Fibroin-modulator-binding protein-1,ITC,"double-stranded DNA, one strand shown",,,Kd,5270 ± 865 nM
GGAAGTGACGTACGTCGTGCACACGTGGTCCGGCGTCAAGTCAATCGGTCC (dsDNA; 5'-amino-C6 primer),SPT15/TOA1/TOA2/SUA7 1-240; 1-286; 1-122; 1-345,array,"double-stranded DNA, one strand shown",TBP:TFIIA:TFIIB ternary complex,,Kd,2.25 ± 0.64 nM
"DNA 1 CACTGGCCGTCTTACGGTCGCTCTGCTCGACG / DNA 2 CGACCGTAAGACGGCCAGTG (dsDNA; 20 bp, 3' 12 nt overhang)","RECQL 63-592 T371A (Bos taurus, UniProt A0JN36)",fluorescence anisotropy,double-stranded DNA,added: Mg2+ 3 mM,,Kd,113 ± 9 nM
SEC11A,,co-immunoprecipitation,human RBC cytosol,"DSSO crosslinker, unit not given, added: Band 3 peptide 1-56 bait",reference: negative control,co-IP enrichment,1.19
GSGAGPETLV,human MAGI1-2/6 PDZ construct (MBP fusion),automated holdup,"peptide, crude extract","concentration not given, corrected by standard peak, unit not given","reference: biotin control resin, higher = stronger binding",binding intensity,0.211
GCGCGCGCGCGC (dsDNA),Fibroin-modulator-binding protein-1,ITC,"double-stranded DNA, one strand shown",,,Kd,6610 nM
GGGAGAACUUCGACCAGAAGAGCAAGUACGCGAAAAUCUUCCCCGCCUCUUGUUGGCAUCUAUGUGCGCAUACAUGGAUCCUC (ssRNA; 2'-fluoro pyrimidines),integrin alphaV/beta3 31-992/27-718 (Homo sapiens),SPR,RNA,added: MnCl2 1 mM,higher = more binding,relative binding,73.9 RU
CAAACAAACAAA (dsDNA),Fibroin-modulator-binding protein-1,ITC,"double-stranded DNA, one strand shown",,,Kd,4610 ± 463 nM
AAAUGAGGCGCUGCAUGUGGCAGUCUGCCUUUCUUU (structured RNA),"MLLT3 1-140 (Homo sapiens, UniProt P42568)","competition with labeled RNA, fluorescence polarization",folded RNA,,,Ki,21 ± 1 nM
GTTCCTGAAGGGGGGGCTATAAAACGGGGTGGGGGTCAAGTCAATCGGTCC (dsDNA; 5'-amino-C6 primer),SPT15/TOA1/TOA2/SUA7 1-240; 1-286; 1-122; 1-345,array,"double-stranded DNA, one strand shown",TBP:TFIIA:TFIIB ternary complex,,Kd,1.62 ± 0.15 nM
GGGAGAACUUCGACCAGAAGAAGGAUACGCAUCUAGCACCCCUGCCUUCCUUCUAAUGUUUAUGUGCGCAUACAUGGAUCCUC (ssRNA; 2'-fluoro pyrimidines),integrin alphaV/beta3 31-992/27-718 (Homo sapiens),SPR,RNA,added: MnCl2 1 mM,higher = more binding,relative binding,109 RU
GTCAGTCAGTCA (dsDNA),Fibroin-modulator-binding protein-1,ITC,"double-stranded DNA, one strand shown",,,Kd,5780 ± 628 nM
CGCGCCTGCGCTCTATATATACAGCGGCCCTGCCCTCAAGTCAATCGGTCC (dsDNA; 5'-amino-C6 primer),SPT15/TOA1/TOA2/SUA7 1-240; 1-286; 1-122; 1-345,array,"double-stranded DNA, one strand shown",TBP:TFIIA:TFIIB ternary complex,,Kd,1.74 ± 0.23 nM
GGGAGAACUUCGACCAGAAGCACCUCUCCCAACAGCGGAACUGUUUCUCGGUCCAAAAGGUAUGUGCGCAUACAUGGAUCCUC (ssRNA; 2'-fluoro pyrimidines),integrin alphaV/beta3 31-992/27-718 (Homo sapiens),SPR,RNA,added: MnCl2 1 mM,higher = more binding,relative binding,24.8 RU
GCTGGCTGGCTG (dsDNA),Fibroin-modulator-binding protein-1,ITC,"double-stranded DNA, one strand shown",,,Kd,5460 ± 561 nM
GGGAGAACUUCGACCAGAAGAAACCAGGAGGACGCACAUUACGCAAAAAGUAUCCCUGCCUAUGUGCGCAUACAUGGAUCCUC (ssRNA; 2'-fluoro pyrimidines),integrin alphaV/beta3 31-992/27-718 (Homo sapiens),SPR,RNA,added: MnCl2 1 mM,higher = more binding,relative binding,92.2 RU
GLAQWIAGV,Jurkat T cells expressing 1G4 TCR,"NFAT-eGFP reporter, fluorescence microscopy",peptide,"concentration not given, HLA-A*02:01 NY-ESO system",,reporter activation,0.007%

# A few entries again:
Substance,tested on,test,test system,conditions,how to read,endpoint,result
GLAQWIAGV,Jurkat T cells expressing 1G4 TCR,"NFAT-eGFP reporter, fluorescence microscopy",peptide,"concentration not given, HLA-A*02:01 NY-ESO system",,reporter activation,0.007%
GTCAGTCAGTCA (dsDNA),Fibroin-modulator-binding protein-1,ITC,"double-stranded DNA, one strand shown",,,Kd,5780 ± 628 nM
GGGAGAACUUCGACCAGAAGAGCAAGUACGCGAAAAUCUUCCCCGCCUCUUGUUGGCAUCUAUGUGCGCAUACAUGGAUCCUC (ssRNA; 2'-fluoro pyrimidines),integrin alphaV/beta3 31-992/27-718 (Homo sapiens),SPR,RNA,added: MnCl2 1 mM,higher = more binding,relative binding,73.9 RU
